Measured values pooled from the literature.
A part holds a random share of what one study measured. Changes are numbered by the printed parent chain.

Sample 1
Target: Histone acetyltransferase KAT6A, winged helix 1, GST fusion (KAT6A, Homo sapiens, UniProt Q92794, residues 1-85)
Method: protein binding microarray
Molecule type: double-stranded DNA, one strand shown
Medium: in vitro
Concentration: not given
Notes: 8-mer, flanks averaged, mean of 2 arrays, mostly near background
Relative to: not given
Reading: higher = stronger binding
Construct (chain): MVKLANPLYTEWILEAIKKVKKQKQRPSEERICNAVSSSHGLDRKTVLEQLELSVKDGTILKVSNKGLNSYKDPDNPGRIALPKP
The E-score of `CGATACAC` is reported as -0.000575.
`TAGCGCTA` gave an E-score of 0.252.
For `CTCTGAGC`, the E-score was -0.153.
`GTATGGAC` has an E-score of -0.0196.
With `GCTATCCA` the E-score was 0.0742.
The E-score of `CTAAGGAC` is reported as -0.0205.
The E-score of `GCTGCTTA` is reported as -0.0293.
The E-score of `GGAGTCTA` is reported as 0.0208.
For `CTCACCTA`, the E-score was -0.0955.
`CGTGTATC` has an E-score of 0.0718.
`ATCTTCGG` gave an E-score of -0.0839.
With `ACTGAGGA` the E-score was -0.112.
With `ATCTCATA` the E-score was -0.232.
For `CTTCAGAA`, the E-score was -0.194.
`CGGGTGAG` has an E-score of 0.216.
`AAGTCAAG` has an E-score of -0.198.
`AGCCTACT` gave an E-score of -0.232.
With `CCTCGAAA` the E-score was -0.106.
With `AGTTAACC` the E-score was 0.0518.
With `AAAATCTT` the E-score was -0.0775.
`AGATAGCA` gave an E-score of -0.215.
`TGACCAAA` has an E-score of -0.0778.
The E-score of `ACCAGATG` is reported as -0.221.
With `GCGTAAGA` the E-score was 0.196.
`AAACGGAT` has an E-score of -0.00016.

Sample 2
Target: CDC34 UBC core domain (UniProt P49427)
Method: yeast two-hybrid
Medium: yeast
Notes: mostly zero background
Relative to: not given
Reading: higher = stronger interaction
B1: UBE4A RING domain (UniProt Q14139); chain LQQQEEETYADACDEFLDPIMSTLMCDPVVLPSSRVTVDRSTIARHLLSDQTDPFNRSPLTMDQIRPNTELKEKIQRWLAERKQQKEQLE
B2: RNF150 RING domain (UniProt Q9ULK6); chain DKETESDFDNCAVCIEGYKPNDVVRILPCRHLFHKSCVDPWLLDHRTCPMCKMNILKALGIP
B3: TRIM38 RING domain (UniProt O00635); chain STKKMMEEATCSICLSLMTNPVSINCGHSYCHLCITDFFKNPSQKQLRQETFCCPQCRAPFHMDSLRP
B4: RNF32 RING domain (UniProt Q9H0A6); chain SLLQGDSVQPCPICKEEFELRPQVLLSCSHVFHKACLQAFEKFTNKKTCPLCRKNQYQTRVIH
B5: PEX2 RING domain (UniProt P28328); chain DNTLATSGKECALCGEWPTMPHTIGCEHIFCYFCAKSSFLFDVYFTCPKCGTEVHSLQPLK
B6: RNF5 RING domain (UniProt Q99942); chain ERGGAGATFECNICLETAREAVVSVCGHLYCWPCLHQWLETRPERQECPVCKAGISREKVVP
B7: TRIM3 RING domain (UniProt O75382); chain VQPMDKQFLVCSICLDRYQCPKVLPCLHTFCERCLQNYIPAQSLTLSCPVCRQTSILPEQGV
B8: RNF43 RING domain (UniProt Q68DV7); chain SGSSCSSAPVCAICLEEFSEGQELRVISCLHEFHRNCVDPWLHQHRTCPLCMFNITEGDSFS
Residues (chain): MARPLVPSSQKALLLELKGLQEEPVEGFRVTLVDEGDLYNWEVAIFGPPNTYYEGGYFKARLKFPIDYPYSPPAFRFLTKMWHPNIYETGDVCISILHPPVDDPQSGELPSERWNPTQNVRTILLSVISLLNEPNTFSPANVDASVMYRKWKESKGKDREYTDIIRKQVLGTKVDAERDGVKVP
`FLKKLEQSFMCVCCQELVYQPVTTECFHNVCKDCLQRSFKAQVFSCPACRHDLGQNYIMI (UHRF2 RING domain (UniProt Q96PU4))`: “lacZ reporter activity” 0.
For `KIKDLNEHIVCCLCAGYFVDATTITECLHTFCKSCIVKYLQTSKYCPMCNIKIHETQPLL (PCGF1 RING domain (UniProt Q9BSM1))`, “lacZ reporter activity” read 0.
Under “lacZ reporter activity”, `B1 (UBE4A RING domain)` is recorded as 0.
Under “lacZ reporter activity”, `B2 (RNF150 RING domain)` is recorded as 0.
Under “lacZ reporter activity”, `B3 (TRIM38 RING domain)` is recorded as 0.
`KRQCSDVDDICSICQAEFQKPILLICQHIFCEECMTLWFNREKTCPLCRTVISDHINKW (RNFT1 RING domain (UniProt Q5M7Z0))` — result for “lacZ reporter activity”: 0.
`B4 (RNF32 RING domain)`: “lacZ reporter activity” 0.
`B5 (PEX2 RING domain)`: “lacZ reporter activity” 0.
Under “lacZ reporter activity”, `B6 (RNF5 RING domain)` is recorded as 0.
Under “lacZ reporter activity”, `B7 (TRIM3 RING domain)` is recorded as 0.
Under “lacZ reporter activity”, `B8 (RNF43 RING domain)` is recorded as 0.

Sample 3
Target: CCNE2, cyclin fold, Cln2 fusion (human)
Method: yeast growth competition, sequencing
Medium: yeast
Notes: weak parent motif
Relative to: not given
Reading: higher = stronger binding
Starting sequence: CDT1 docking peptide (human); PPARRRLRLSVDE
`S10A` — result for “normalised enrichment score”: 0.0807.
Under “normalised enrichment score”, `P2A` is recorded as 1.03.
Under “normalised enrichment score”, `R6A` is recorded as 1.03.
`L9A` — result for “normalised enrichment score”: 0.336.
`R5A`: “normalised enrichment score” -0.271.
`D12A`: “normalised enrichment score” 1.58.
`R5K L9F`: “normalised enrichment score” 1.02.

Sample 4
Target: ATF5, bZIP domain (human)
Method: DHFR protein complementation
Medium: yeast
Notes: single substitutions, most at no-binding floor
Relative to: wild-type JUN-FOS pair
Reading: higher = stronger binding
Starting sequence: JUN, bZIP domain (human); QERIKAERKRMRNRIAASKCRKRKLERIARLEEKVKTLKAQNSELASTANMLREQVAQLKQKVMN; partner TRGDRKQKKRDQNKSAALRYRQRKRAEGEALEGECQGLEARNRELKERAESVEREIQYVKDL
The binding fitness of `E32K` is reported as -1.45 natural log.
`N42V` has a binding fitness of -1.4 natural log.
For `Q41G`, the binding fitness was -1.45 natural log.
With `L52I` the binding fitness was -1.13 natural log.
`A40G` has a binding fitness of -1.47 natural log.
With `I28P` the binding fitness was -1.42 natural log.
The binding fitness of `R30F` is reported as -1.45 natural log.
With `L52W` the binding fitness was -1.49 natural log.
`E32Y` gave a binding fitness of -1.49 natural log.
With `V56D` the binding fitness was -1.56 natural log.
`A57I` has a binding fitness of -1.16 natural log.
`T37K` has a binding fitness of -1.35 natural log.
`L59H` gave a binding fitness of -1.54 natural log.
`L38R` has a binding fitness of -1.52 natural log.
`A40V` has a binding fitness of -1.41 natural log.
The binding fitness of `V35R` is reported as -1.43 natural log.
`L31R` has a binding fitness of -1.53 natural log.
With `A29W` the binding fitness was -1.5 natural log.
For `N42K`, the binding fitness was -1.45 natural log.
With `A57P` the binding fitness was -1.51 natural log.
The binding fitness of `I28A` is reported as -1.55 natural log.

Sample 5
Target: ABI1, truncated, D143A, DHFR fusion (Arabidopsis thaliana)
Method: DHFR PCA, deep sequencing
Medium: yeast
Notes: methotrexate growth selection, single substitutions
With: (+)-ABA 58 µM
Relative to: wild-type fitted maximum
Reading: higher = stronger binding
Starting sequence: PYL1, truncated, DHFR fusion (Arabidopsis thaliana); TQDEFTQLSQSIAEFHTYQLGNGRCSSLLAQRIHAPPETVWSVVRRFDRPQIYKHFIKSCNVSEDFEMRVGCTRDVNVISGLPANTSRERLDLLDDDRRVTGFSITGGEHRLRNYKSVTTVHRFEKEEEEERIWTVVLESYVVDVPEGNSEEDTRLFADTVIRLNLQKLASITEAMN; partner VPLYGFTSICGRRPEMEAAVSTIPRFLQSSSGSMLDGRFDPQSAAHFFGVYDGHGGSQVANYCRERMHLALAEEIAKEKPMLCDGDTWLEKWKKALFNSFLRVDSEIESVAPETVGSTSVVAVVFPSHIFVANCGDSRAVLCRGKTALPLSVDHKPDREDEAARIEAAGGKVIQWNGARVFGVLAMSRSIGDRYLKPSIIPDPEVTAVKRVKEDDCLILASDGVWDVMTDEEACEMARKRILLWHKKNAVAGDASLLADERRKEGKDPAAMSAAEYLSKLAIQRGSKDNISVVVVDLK
For `H16N`, “relative binding score” read 5.3%.
For `L20N`, “relative binding score” read 87.9%.
`C25I`: “relative binding score” 82.9%.
Under “relative binding score”, `I133A` is recorded as 96.7%.
Under “relative binding score”, `N149H` is recorded as 31.1%.
`N61K`: “relative binding score” 94.4%.
For `V142A`, “relative binding score” read 79.3%.
`A84L` — result for “relative binding score”: 7.3%.
`C60K`: “relative binding score” -3.09%.
Under “relative binding score”, `A170S` is recorded as 70.6%.
Under “relative binding score”, `Y53I` is recorded as 11.1%.
`E127T`: “relative binding score” 94.8%.
Under “relative binding score”, `E4R` is recorded as 74.1%.
Under “relative binding score”, `P50V` is recorded as 18.3%.
Under “relative binding score”, `F124E` is recorded as 86.5%.
`Y18T`: “relative binding score” 68.6%.
`L28I` — result for “relative binding score”: 84.8%.
For `S26G`, “relative binding score” read 85.5%.
For `A30F`, “relative binding score” read 93%.
For `I57F`, “relative binding score” read 4.09%.
For `L93D`, “relative binding score” read 27.8%.
`P146A`: “relative binding score” 71.1%.
`D3C` — result for “relative binding score”: 89%.
`Y18A`: “relative binding score” 70.1%.

For quick reference, copied from above (sample 4):
`A40V` has a binding fitness of -1.41 natural log.
The binding fitness of `V35R` is reported as -1.43 natural log.
`L31R` has a binding fitness of -1.53 natural log.
With `A29W` the binding fitness was -1.5 natural log.
For `N42K`, the binding fitness was -1.45 natural log.
With `A57P` the binding fitness was -1.51 natural log.
